Measured values from different studies.
Every numbered part comes from another study and shows a few of its results, in no order.
Sequence of UniProt P21917 (whole entry, looked up): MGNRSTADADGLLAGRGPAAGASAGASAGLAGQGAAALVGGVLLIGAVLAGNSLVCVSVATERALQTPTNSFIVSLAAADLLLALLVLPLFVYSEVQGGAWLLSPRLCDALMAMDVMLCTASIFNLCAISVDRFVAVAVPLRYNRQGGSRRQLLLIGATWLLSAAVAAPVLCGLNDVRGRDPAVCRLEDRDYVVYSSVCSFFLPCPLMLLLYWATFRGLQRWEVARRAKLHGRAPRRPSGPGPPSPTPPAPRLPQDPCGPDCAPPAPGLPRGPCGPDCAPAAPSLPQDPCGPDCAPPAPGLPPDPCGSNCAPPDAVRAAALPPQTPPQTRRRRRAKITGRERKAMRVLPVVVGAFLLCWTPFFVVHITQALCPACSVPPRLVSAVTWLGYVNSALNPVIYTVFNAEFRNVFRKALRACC

Series 1
Target: Prothrombin, mature alpha-thrombin (F2, Homo sapiens, UniProt P00734)
Method: aptamer microarray, sandwich
Molecule type: DNA with 2'F-ANA
Matrix: in vitro
Tested at: 200 nM
Setting: whole 15-mer aptamer, many near background
Added: Cy3 exosite-II aptamer, 400 nM
Reading: higher = stronger binding
Endpoint: mean fluorescence intensity
Oligonucleotide: GGTTGGTGTGGTTGG
Modification = 2'F-ANA at 1 3 7 9 11 14 15; value = 82.5 a.u.
Modification = 2'F-ANA at 3 4 6 7 11 13 14 15; value = 237 a.u.
Modification = 2'F-ANA at 2 3 4 5 9 10 11 13; value = 75 a.u.
Modification = 2'F-ANA at 2 4 9 10 11 14; value = 65.8 a.u.
Modification = 2'F-ANA at 1 3 5 9 10 12 13 15; value = 57.7 a.u.
Modification = 2'F-ANA at 1 3 5 7 8 9 13 14 15; value = 54.3 a.u.
Modification = 2'F-ANA at 4 5 9 10 12 13 15; value = 46.8 a.u.
Modification = 2'F-ANA at 2 3 4 5 6 8 9 10 12 14 15; value = 51.3 a.u.

Series 2
Target: Transcriptional repressor CTCF (CTCF, Homo sapiens, UniProt P49711, residues 1-727, full length assumed)
Sequence of UniProt P49711 (whole entry, looked up): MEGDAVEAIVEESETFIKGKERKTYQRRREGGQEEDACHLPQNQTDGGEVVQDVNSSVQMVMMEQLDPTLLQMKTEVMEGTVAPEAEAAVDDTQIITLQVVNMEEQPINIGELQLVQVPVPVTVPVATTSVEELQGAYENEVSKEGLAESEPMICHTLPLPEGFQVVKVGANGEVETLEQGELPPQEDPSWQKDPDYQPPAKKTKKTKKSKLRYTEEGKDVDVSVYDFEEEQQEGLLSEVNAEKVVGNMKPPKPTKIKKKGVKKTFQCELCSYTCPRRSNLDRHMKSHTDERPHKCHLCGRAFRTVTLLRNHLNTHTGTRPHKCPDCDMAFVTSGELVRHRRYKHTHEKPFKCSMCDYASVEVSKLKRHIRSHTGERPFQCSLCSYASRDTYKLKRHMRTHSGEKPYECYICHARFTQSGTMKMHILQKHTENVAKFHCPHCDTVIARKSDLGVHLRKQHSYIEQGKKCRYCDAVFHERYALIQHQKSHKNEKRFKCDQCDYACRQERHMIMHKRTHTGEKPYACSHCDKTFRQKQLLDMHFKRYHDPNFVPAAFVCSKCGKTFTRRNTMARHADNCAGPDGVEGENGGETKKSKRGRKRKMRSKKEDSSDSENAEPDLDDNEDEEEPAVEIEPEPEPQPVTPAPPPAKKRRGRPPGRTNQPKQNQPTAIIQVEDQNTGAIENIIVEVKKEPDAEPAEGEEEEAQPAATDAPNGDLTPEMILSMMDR
Method: protein-binding microarray
Molecule type: double-stranded DNA, one strand shown
Matrix: in vitro
Tested at: not given
Setting: k-mer, scored over probes, only values ≥0.25
Reading: higher = stronger binding
Endpoint: E-score
Oligonucleotide = ATAATATA; value = 0.4
Oligonucleotide = ATATAATG; value = 0.306
Oligonucleotide = ATAAAAAT; value = 0.282
Oligonucleotide = CGCATAAA; value = 0.335
Oligonucleotide = CCGACAGG; value = 0.306
Oligonucleotide = ATAATACG; value = 0.278
Oligonucleotide = CATATGTA; value = 0.266
Oligonucleotide = AACGTTAT; value = 0.269

Series 3
Organism: Sarcocystis neurona
Effect on: parasite activity
Tested at: 10 µM
Time: 96 h
Endpoint: activity class
SMILES = COc1cc([C@@H]2c3cc4c(cc3[C@H](O)[C@H]3COC(=O)[C@H]23)OCO4)cc(OC)c1OC; value = inactive
SMILES = O=C(CCNNC(=O)c1ccncc1)NCc1ccccc1; value = inactive
SMILES = CN1CC(=O)N2[C@H](c3ccc4c(c3)OCO4)c3[nH]c4ccccc4c3C[C@@H]2C1=O; value = inactive

Other studies, line by line
Compound = CCOc1cc(=O)n2c(c1C(=O)Nc1cc(OC)c(Cl)cc1OC)CCCC2; test system = human, microsomes or S9; setting = 2 µM, 0.5 h; endpoint = remaining compound; value = > 99%
Compound = CN(c1ccnc(CNc2nc(Nc3ccc4c(c3)CC(=O)N4)ncc2C(F)(F)F)n1)S(C)(=O)=O; target or system = D(4) dopamine receptor (DRD4, Homo sapiens, UniProt P21917); assay = cell-free assay; setting = 10 µM; endpoint = inhibition; value = 2.34%
Compound = CC1CCC(c2c[nH]c3ccc(Cl)cc23)C(=O)C1 (stereo not shown); test system = human, microsomes or S9; setting = 2 µM, 0.5 h; endpoint = remaining compound; value = 13.3%
